Measured values collected from several papers.
Target: Amine oxidase [flavin-containing] A (MAOA, Homo sapiens, UniProt P21397)

| SMILES | assay | setting | how to read | endpoint | value |
| --- | --- | --- | --- | --- | --- |
| Cc1ccc2c(n1)c(-c1cccc(S(C)(=O)=O)c1)c(C)n2C/C(F)=C/CN | ligand displacement | 10 µM | – | inhibition | 1% |
| C/C(=N\OCCCN1CCCCC1)c1ccc(C(F)(F)F)cc1 | antagonist, FI | 10 µM | – | inhibition | 39.8% |
| Cc1cc(Nc2nc(C[C@@]3(C(=O)O)CCN(Cc4cccc(Cl)c4F)[C@H](C)C3)cc(C)c2F)[nH]n1 | enzyme activity, inhibitor | 10 µM | – | inhibition | -2.59% |
| CCOC(=O)[C@](CC)(CCCSCCOCCOCCNC(=O)c1ccc(-c2c3ccc(=N)c(S(=O)(=O)O)c-3oc3c(S(=O)(=O)O)c(N)ccc23)c(C(=O)O)c1)NC(=O)c1ccc(C2CC2)c(Cc2ccc(F)cc2)n1 | enzyme activity, inhibitor | 10 µM | – | inhibition | 1% |
| C[C@H](NCc1ccc(-c2ccc(C(F)(F)F)cc2)cc1)C(N)=O | enzyme activity, SafetyScreen panel | 1 µM, added: 50.0 µM kynuramine | – | inhibition | 5% |
| CS(C)(=O)=Nc1ccc(-c2ccc(-c3nc4cc(O[C@@H]5CO[C@H]6[C@@H]5OC[C@H]6O)[nH]c4cc3F)cc2)cc1 | enzyme activity, inhibitor | 10 µM | – | inhibition | -2% |
| COc1ccc(F)cc1S(=O)(=O)Nc1cnc2c(c1)C(=O)NCCO2 | enzyme activity, inhibitor | 10 µM | – | inhibition | 1% |
| C[C@H](NC(=O)[C@@H](N)CCC(=O)O)C(=O)N[C@@H](Cc1ccc(O)cc1)C(=O)N[C@@H](CCC(N)=O)C(=O)O | inhibitor, fluorometric | – | baseline: IC50 MAO-B over IC50 MAOA | selectivity ratio | 2 |
| CCN(CC)CCOc1ccc(-c2nnn(Cc3ccc(OC)cc3)c2N)cc1 | enzyme activity | 10 µM | – | inhibition | -5.22% |

Some of these lines once more:
| SMILES | assay | setting | how to read | endpoint | value |
| --- | --- | --- | --- | --- | --- |
| COc1ccc(F)cc1S(=O)(=O)Nc1cnc2c(c1)C(=O)NCCO2 | enzyme activity, inhibitor | 10 µM | – | inhibition | 1% |
